Assay results of several laboratories.
Parts stem from different laboratories: compare values within a part only. Changes are numbered by the printed parent chain.
Chain of UniProt Q9XED8 (whole entry, looked up): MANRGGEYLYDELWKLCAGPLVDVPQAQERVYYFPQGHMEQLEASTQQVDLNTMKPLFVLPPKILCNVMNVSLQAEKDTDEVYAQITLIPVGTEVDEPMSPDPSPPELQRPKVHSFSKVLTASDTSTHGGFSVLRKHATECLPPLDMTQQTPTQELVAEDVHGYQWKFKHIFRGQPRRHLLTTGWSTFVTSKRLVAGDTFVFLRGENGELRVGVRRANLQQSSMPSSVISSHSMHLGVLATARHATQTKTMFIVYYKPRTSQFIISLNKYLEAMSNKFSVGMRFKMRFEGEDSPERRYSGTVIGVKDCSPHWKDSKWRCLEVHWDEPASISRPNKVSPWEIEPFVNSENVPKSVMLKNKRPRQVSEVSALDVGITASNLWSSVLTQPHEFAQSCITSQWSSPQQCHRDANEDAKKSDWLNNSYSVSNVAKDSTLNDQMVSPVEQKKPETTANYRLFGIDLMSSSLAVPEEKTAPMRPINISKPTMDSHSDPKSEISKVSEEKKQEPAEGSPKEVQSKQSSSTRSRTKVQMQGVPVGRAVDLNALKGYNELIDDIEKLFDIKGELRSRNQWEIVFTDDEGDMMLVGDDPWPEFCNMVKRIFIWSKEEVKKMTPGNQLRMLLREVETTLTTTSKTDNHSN
Chain of UniProt O24407 (whole entry, looked up): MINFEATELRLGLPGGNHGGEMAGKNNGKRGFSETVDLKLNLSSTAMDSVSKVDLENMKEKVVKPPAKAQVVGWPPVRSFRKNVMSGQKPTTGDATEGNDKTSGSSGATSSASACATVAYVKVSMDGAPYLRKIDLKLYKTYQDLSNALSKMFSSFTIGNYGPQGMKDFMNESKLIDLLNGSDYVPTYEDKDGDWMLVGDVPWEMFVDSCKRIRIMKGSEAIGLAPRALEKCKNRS
Chain of UniProt Q38832 (whole entry, looked up): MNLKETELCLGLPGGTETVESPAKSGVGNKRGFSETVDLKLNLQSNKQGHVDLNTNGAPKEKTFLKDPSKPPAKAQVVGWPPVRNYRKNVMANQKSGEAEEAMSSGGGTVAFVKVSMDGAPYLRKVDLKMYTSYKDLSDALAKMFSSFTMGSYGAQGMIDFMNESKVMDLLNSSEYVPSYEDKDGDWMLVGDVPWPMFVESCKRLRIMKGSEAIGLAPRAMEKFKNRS
Chain of UniProt Q9XID4 (whole entry, looked up): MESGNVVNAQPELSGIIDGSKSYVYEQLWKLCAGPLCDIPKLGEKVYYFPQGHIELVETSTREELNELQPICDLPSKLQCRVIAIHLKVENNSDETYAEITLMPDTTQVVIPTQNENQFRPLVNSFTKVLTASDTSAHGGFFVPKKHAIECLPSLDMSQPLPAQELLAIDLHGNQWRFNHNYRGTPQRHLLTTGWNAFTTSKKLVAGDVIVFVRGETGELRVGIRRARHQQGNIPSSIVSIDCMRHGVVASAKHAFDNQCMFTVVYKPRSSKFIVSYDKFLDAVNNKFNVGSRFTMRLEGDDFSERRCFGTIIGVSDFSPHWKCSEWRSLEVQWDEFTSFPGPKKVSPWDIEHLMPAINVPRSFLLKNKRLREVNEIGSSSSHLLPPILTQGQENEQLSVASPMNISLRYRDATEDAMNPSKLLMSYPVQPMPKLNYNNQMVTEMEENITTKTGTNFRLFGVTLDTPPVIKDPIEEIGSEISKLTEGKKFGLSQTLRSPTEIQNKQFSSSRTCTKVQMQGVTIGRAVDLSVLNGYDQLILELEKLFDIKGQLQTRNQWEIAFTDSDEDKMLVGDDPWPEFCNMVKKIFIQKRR
Chain of UniProt Q8RYC6 (whole entry, looked up): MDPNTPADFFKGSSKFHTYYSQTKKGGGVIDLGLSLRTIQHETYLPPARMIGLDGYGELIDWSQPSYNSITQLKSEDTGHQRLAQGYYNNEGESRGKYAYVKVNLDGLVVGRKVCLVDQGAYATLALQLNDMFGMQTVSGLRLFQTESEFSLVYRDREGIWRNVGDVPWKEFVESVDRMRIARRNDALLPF
Chain of UniProt Q9XFM0 (whole entry, looked up): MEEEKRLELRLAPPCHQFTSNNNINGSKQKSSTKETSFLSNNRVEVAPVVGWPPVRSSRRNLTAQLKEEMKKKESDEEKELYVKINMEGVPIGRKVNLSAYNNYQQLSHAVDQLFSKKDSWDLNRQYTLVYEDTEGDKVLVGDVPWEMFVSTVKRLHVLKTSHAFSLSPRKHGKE
Chain of UniProt Q9FKM7 (whole entry, looked up): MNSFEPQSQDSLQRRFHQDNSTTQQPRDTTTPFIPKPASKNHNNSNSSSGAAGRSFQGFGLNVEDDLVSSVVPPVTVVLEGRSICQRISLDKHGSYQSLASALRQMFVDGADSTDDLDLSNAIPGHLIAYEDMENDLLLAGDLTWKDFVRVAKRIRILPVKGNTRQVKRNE

Set 1 — Sequence: B1 (IAA12); technique: two-hybrid; direction: higher = firmer interaction
B1: IAA12 (Arabidopsis thaliana, UniProt Q38830); chain MRGVSELEVGKSNLPAESELELGLGLSLGGGAWKERGRILTAKDFPSVGSKRSAESSSHQGASPPRSSQVVGWPPIGLHRMNSLVNNQAMKAARAEEGDGEKKVVKNDELKDVSMKVNPKVQGLGFVKVNMDGVGIGRKVDMRAHSSYENLAQTLEEMFFGMTGTTCREKVKPLRLLDGSSDFVLTYEDKEGDWMLVGDVPWRMFINSVKRLRIMGTSEASGLAPRRQEQKDRQRNNPV
partner	setting	relative to	positive tests
ARF12 500-593 (Arabidopsis thaliana, UniProt Q9XID4)		out of 4 tests	0
IAA32 (Arabidopsis thaliana, UniProt Q8RYC6)		out of 4 tests	0
IAA33 (Arabidopsis thaliana, UniProt Q9FKM7)		out of 4 tests	1
ARF9 519-638 (Arabidopsis thaliana, UniProt Q9XED8)	weak activation fusion	out of 4 tests	2
IAA16 (Arabidopsis thaliana, UniProt O24407)		out of 4 tests	4
IAA28 (Arabidopsis thaliana, UniProt Q9XFM0)		out of 2 tests	2
IAA14 (Arabidopsis thaliana, UniProt Q38832)		out of 4 tests	3

Set 2 — target: CCNE1, cyclin fold, Cln2 fusion (human); technique: yeast growth competition, sequencing; sample: yeast; setting: strong parent motif; relative to: not given; direction: higher = stronger binding
Starting sequence: CDC25A docking peptide (human); PPHRRRLLFACSP
Variant	normalised enrichment score
PPHHRRLLFACSP [R4H]	0.15
PPHRRRLLFFCSP [A10F]	0.982
PPHVRRLLFACSP [R4V]	4.16
PPIRRRLLFACSP [H3I]	0.901
PPHRRRILFACSP [L7I]	1.12
PPHRMRLLFACSP [R5M]	1.37
PPHRRRLLFACSG [P13G]	1.45
PPHRRRLLFAFSP [C11F]	1.6
PPHRRRLMFACSP [L8M]	1.12
PPSRRRLLFACSP [H3S]	1.39
PPHFRRLLFACSP [R4F]	1.19
PPHRRRLLFAYSP [C11Y]	1.11
PPHRRRLLGACSP [F9G]	1.29
PPWRRRLLFACSP [H3W]	2.25
PLHRRRLLFACSP [P2L]	0.438
PPHRRRLLPACSP [F9P]	0.117
PPHRRRLLFAHSP [C11H]	1.02
PPHRRRLLFACFP [S12F]	1.2
PPHRRRGLFACSP [L7G]	0.131
PPHRRRLLNACSP [F9N]	0.796
PPHRRRLLFACEP [S12E]	1.95
SPHRRRLLFACSP [P1S]	2.96
PDHRRRLLFACSP [P2D]	0.65
PPHNRRLLFACSP [R4N]	1.32
PPHRRRLLFVCSP [A10V]	1.21

Set 3 — technique: DHFR PCA, deep sequencing; sample: yeast; with: (+)-ABA 58 µM; relative to: wild-type fitted maximum; direction: higher = stronger binding
Target: ABI1, truncated, D143A, DHFR fusion (Arabidopsis thaliana)
Setting: methotrexate growth selection, single substitutions
Starting sequence: PYL1, truncated, DHFR fusion (Arabidopsis thaliana); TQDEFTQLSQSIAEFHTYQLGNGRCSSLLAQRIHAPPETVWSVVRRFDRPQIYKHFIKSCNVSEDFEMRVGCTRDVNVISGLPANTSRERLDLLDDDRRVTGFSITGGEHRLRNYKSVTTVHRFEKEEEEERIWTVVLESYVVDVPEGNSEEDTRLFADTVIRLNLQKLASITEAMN; partner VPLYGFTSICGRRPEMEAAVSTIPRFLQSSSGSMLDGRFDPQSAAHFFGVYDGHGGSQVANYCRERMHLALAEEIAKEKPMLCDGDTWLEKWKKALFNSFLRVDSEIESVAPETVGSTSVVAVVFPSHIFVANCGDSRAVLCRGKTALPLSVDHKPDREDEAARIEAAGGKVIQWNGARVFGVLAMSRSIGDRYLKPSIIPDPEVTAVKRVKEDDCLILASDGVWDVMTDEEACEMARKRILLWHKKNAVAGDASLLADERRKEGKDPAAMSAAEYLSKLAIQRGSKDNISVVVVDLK
Variant	relative binding score [%]
E147A	81.9
S42Q	97.1
D159H	26.4
R45S	61.5
E14V	65.3
R98Y	55.4
L138P	-14.4
S9Y	67
Y115G	7.63
S9H	77.4

Set 4 — technique: universal PBM; form: double-stranded DNA, one strand shown; sample: in vitro; tested at: not given; direction: higher = stronger binding
Target: Sal-like protein 4, full length isoform B (SALL4, Homo sapiens, UniProt Q9UJQ4-2, residues 1-616)
Setting: 8-mer, flanks averaged, mean of replicates
Strand	E-score
CGCAAAAA	0.214
GGGCCTAA	-0.295
AAATTCAA	0.343
GACATCAC	-0.0105
GTTATTTA	0.301
TAGGGCCA	-0.0914
GCATATAA	0.325
AGCAAAGG	-0.116
GCCGCGCA	-0.32
ATGTTACG	0.189
AGAACTGC	-0.0408
AGCGGTGC	-0.127
TGTCTGAA	0.0121
CTGTCAGC	-0.162
AGGGAGAT	-0.123
AGTATTAG	0.181
CGATGAAC	-0.0922
ATTCGAGC	-0.111

Set 5 — target: UBE2V2 UBC core domain (UniProt Q15819); technique: yeast two-hybrid; sample: yeast; setting: mostly zero background; relative to: not given; direction: higher = stronger interaction
B2: DTX4 RING domain (UniProt Q9Y2E6); chain QKVRHPPDEDCTICMERLTAPSGYKGPQPTVKPDLVGKLSRCGHVYHIYCLVAMYNNGNKDGSLQCPTCKTIYGVKTGTQ
B3: RC3H1 RING domain (UniProt Q5TC82); chain QAPQWTDFLSCPICTQTFDETIRKPISLGCGHTVCKMCLNKLHRKACPFDQTTINTDIELL
B4: TRIM24 RING domain (UniProt O15164); chain EAARLNLLDTCAVCHQNIQSRAPKLLPCLHSFCQRCLPAPQRYLMLPAPMLGSAETPPPVPAPGSPVSGSSPFATQVGVIRCPVCSQECAERHII
B5: RNF111 RING domain (UniProt Q6ZNA4); chain EGTEEDTEEKCTICLSILEEGEDVRRLPCMHLFHQVCVDQWLITNKKCPICRVDIEAQLPSE
B6: SH3RF2 RING domain (UniProt Q8TEC5); chain DDLTLLDLLECPVCFEKLDVTAKVLPCQHTFCKPCLQRVFKAHKELRCPECRTPVFSNIEAL
B7: TRIM5 RING domain (UniProt Q9C035); chain LREVKLSPEGQKVDHCARHGEKLLLFCQEDGKVICWLCERSQEHRGHHTFLTEEVAREYQVKL
B8: RNF208 RING domain (UniProt Q9H0X6); chain SSAAAGEPLECPTCGHSYNVTQRRPRVLSCLHSVCEQCLQILYESCPKYKFISCPTCRRETVLFTDYG
Residues (chain): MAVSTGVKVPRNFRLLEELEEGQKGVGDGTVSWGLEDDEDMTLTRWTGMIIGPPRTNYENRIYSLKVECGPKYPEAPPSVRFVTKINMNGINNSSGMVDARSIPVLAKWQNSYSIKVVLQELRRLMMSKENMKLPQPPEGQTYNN
Sequence	lacZ reporter activity
B2 (DTX4 RING domain)	0
MPIRALCTICSDFFDHSRDVAAIHCGHTFHLQCLIQWFETAPSRTCPQCRIQVGKRTIIN (TRAIP RING domain (UniProt Q9BWF2))	0
B3 (RC3H1 RING domain)	0
B4 (TRIM24 RING domain)	0
B5 (RNF111 RING domain)	0
GAAPGPEAAECLVCSELALLVLFSPCQHRTVCEECARRMKKCIRCQVVVSKKLRPD (MIB2 RING domain (UniProt Q96AX9))	0
B6 (SH3RF2 RING domain)	0
B7 (TRIM5 RING domain)	0
B8 (RNF208 RING domain)	0

Set 6 — technique: protein-binding microarray; form: double-stranded DNA, one strand shown; sample: in vitro; tested at: 250 nM; setting: 60-bp whole probe; with: salmon DNA 0.4 mg/ml; relative to: random background probes; direction: higher = stronger binding; shared flanks, not repeated: GCCTAGCAC … GTCTTGATTCGCTTGACGCTGCTG
Target: Interferon regulatory factor 5, full length, phosphomimetic (IRF5, Homo sapiens, UniProt Q13568-2, residues 1-514, K96S/S451D/S453D/S456D/S462D)
Strand	log fluorescence [z-score]
AAAGTTTTTCATTTTTTTTCGTGCTAG	2.18
TCATGTCTGTGTTTCCTACTGTGCTAG	0.26
TAAGGACTGGGGTATCGGTTAGTGCTA	2.21
GACGGTCTCCTTCTCCTGACGTGCTAG	-0.3
TTAGATTTTGGGTTTCGATTAGTGCTA	7.04
TAGATCGTCCCTTTGAGAGGGTGCTAG	-0.316
GACGGTTTCGGTTTCTGGACGTGCTAG	9.81
TTAGATATGGGGACTGGATTAGTGCTA	-0.144
TTAGAACTGGGGTATCTATTAGTGCTA	0.156
TTAGAACGGAGTATCGATTAGTGCTAG	5.7
GACGATTTGGGGTATCGAGACGTGCTA	0.344
GACGAACTGCGTCTCGAGACGTGCTAG	-0.541
TCAGGCTTCTATGTAGTACTGTGCTAG	-0.0483
AGAGCAGACCCAGAGTGGCAGTGCTAG	-0.7
CACGATTTCGGGTTTCGAGACGTGCTA	4.86
TTAGATATCGGGTATCGAATAGTGCTA	3.92
TTAGTTCTCGGACTGGGTTAGTGCTAG	0.0157
GACGATATCGGGTTTCGAGAAGTGCTA	4.08

Repeated from above (set 6):
Strand	log fluorescence [z-score]
AAAGTTTTTCATTTTTTTTCGTGCTAG	2.18
TCATGTCTGTGTTTCCTACTGTGCTAG	0.26
TAAGGACTGGGGTATCGGTTAGTGCTA	2.21
GACGGTCTCCTTCTCCTGACGTGCTAG	-0.3
TTAGATTTTGGGTTTCGATTAGTGCTA	7.04
TAGATCGTCCCTTTGAGAGGGTGCTAG	-0.316
GACGGTTTCGGTTTCTGGACGTGCTAG	9.81
TTAGATATGGGGACTGGATTAGTGCTA	-0.144
TTAGAACTGGGGTATCTATTAGTGCTA	0.156
TTAGAACGGAGTATCGATTAGTGCTAG	5.7
GACGATTTGGGGTATCGAGACGTGCTA	0.344
GACGAACTGCGTCTCGAGACGTGCTAG	-0.541
TCAGGCTTCTATGTAGTACTGTGCTAG	-0.0483
AGAGCAGACCCAGAGTGGCAGTGCTAG	-0.7
CACGATTTCGGGTTTCGAGACGTGCTA	4.86
